Published values pooled from the literature.
Each numbered part is a random draw from the data of one study; scales do not carry over between parts.

Block 1 — technique: competition protein-binding microarray; molecule type: double-stranded DNA, one strand shown; matrix: in vitro; concentration: 2 µM; together with: Pho4 competitor, 0.05 µM; direction: higher = stronger binding; all sequences stand within: … GTCTTGATTCGCTTGACGCTGCTG
Target: Centromere-binding protein 1, full length, His-tagged (CBF1, Saccharomyces cerevisiae, UniProt P17106, residues 1-351)
Chain of UniProt P17106 (whole entry, looked up): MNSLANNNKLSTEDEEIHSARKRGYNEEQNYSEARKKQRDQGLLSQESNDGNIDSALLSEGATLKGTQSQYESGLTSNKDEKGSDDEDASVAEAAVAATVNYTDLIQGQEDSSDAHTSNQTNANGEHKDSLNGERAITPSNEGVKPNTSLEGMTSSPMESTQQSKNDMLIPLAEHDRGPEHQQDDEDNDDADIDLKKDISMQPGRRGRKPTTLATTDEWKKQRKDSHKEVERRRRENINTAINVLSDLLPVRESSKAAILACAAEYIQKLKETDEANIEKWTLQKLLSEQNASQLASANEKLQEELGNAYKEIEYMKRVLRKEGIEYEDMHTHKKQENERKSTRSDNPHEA
Setting: whole 60-bp probe, lowest competitor level
Sequence	fluorescence intensity
GTCTTGTCTCATTTTCACGTGCACTTCCCCACTTCA	864 a.u.
CTTTCCCGATCTTGAGCCGTGGGTGTAGCACATTTG	52.6 a.u.
CAGAATCGCATACTCCACGTGAGAACAAGAAAAAAT	665 a.u.
CACAACAGTTCCAATCACGTGATGGTTACTGGACTT	10300 a.u.
GCCATTCTCCATTCACACGTCAATCAGTCGTATTGG	89.3 a.u.
AGTCATTGCGTTACCCACGTGGTCGTTATTGTCCAT	1510 a.u.
GTCTTGTCTCATTGAGATGTGGGTGTCCCCACTTCA	78.7 a.u.
CTTGCAGGTTAGGTTTTCGTGCTAAGATGAGCAGAT	63.9 a.u.
GGAGCAAATAGTTGAAAGGTGTGCCATAAGAAGGTG	78.2 a.u.
CGGGAACGCAAATGCATCGTGGTGAAATGATAAATC	84.4 a.u.
TGCAAGAGAAAAAGTTGCGTGCGATACTGCCTAGGA	71.3 a.u.
TTTTCTTTTCTGTTAAACGTGTGAATTGTCGTTCCT	84.1 a.u.
TTACGGCCATTTCTGCTCGTGGTGAAGATCAAGTGT	73.8 a.u.
TAGAGCAAGAACTAGTTCGTGCCGAAGCTGAATCTT	56.9 a.u.
CGTCCTAGTGATTTTCACGTGAACTCCATGAGGAAG	969 a.u.
CGTCAGCAAAGGGGACCCGTGATGGAGGCGGCCGGG	99.1 a.u.
CGACCATTTTATCGGCACGCTTCCGCAAGTTGGTTC	101 a.u.
CTAACGAAGGTTTCACACGTGTTTTACAAGCCAAGT	1170 a.u.
AGTCGACTGAGGCGGAACGTGTGGAAGGGAAGCAGG	62.7 a.u.

Block 2 — technique: RNA Bind-n-Seq; molecule type: RNA; matrix: in vitro; concentration: not given; relative to: input RNA pool; direction: higher = stronger binding
Target: RING finger protein unkempt homolog, zinc fingers 1-6, GST-SBP tag (UNK, Homo sapiens, UniProt Q9C0B0, residues 30-357)
Setting: RNA with constant flanks, human and mouse sites, ends assumed
All sequences stand within: GGGAGUUCUACAGUCCGACGAUC … CAACAGAGGAUUGAGCAUCA
Construct (chain): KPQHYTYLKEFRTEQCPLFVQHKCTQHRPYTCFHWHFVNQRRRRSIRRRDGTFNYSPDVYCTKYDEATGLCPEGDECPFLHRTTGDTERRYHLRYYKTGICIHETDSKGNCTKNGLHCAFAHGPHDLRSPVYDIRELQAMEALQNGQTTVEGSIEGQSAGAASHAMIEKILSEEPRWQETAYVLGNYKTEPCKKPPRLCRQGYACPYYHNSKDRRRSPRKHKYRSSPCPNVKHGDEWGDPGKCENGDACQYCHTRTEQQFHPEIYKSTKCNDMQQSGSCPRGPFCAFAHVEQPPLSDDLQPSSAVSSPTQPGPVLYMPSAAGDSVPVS
Sequence	bound/input enrichment [ratio]
GGCUUAAACAAAUCUGAAGUUAGUCAUAGGCGAGCCUUCCAUGGUUGGAAUGAAUUUGAUAUCAGUGAAGAUGAACCAUUAUGGAAGAAGUAUAUUUCUCAGUUUAAAAAUCCCCUUAUC	0.297
GUCACAGAAAUUCCUAAAGAAGAGAAGGACCCUGGAAUGGGUGCAAUGGGUGGAAUGGGAGGUGGUAUGGGAGGUGGCAUGUUCUAACUCCUAGACUAGUGCUUUACCUUUAUUAAUGAA	5.7
AUCAAUGCUGUGGUACUGUUGAUUUUAUUGAGUGCCCUGGCUGAUCCGGAUCAGUAUAACUUUUCAAGUUCUGAACUGGGAGGUGACUUUGAGUUCAUGGAUGAUGCCAACAUGUGCAUU	0.0619
GACAGGACUGCUUUGGAUACUAUCAAGGAACAAACACAAAGUGGUGGUGACCUUCGGAGUAGCUCACAGCCCACAGCCGCCAGCGCUCCUCAGAGCUUGAGCAGUCAACGGCGGCUGGUC	0.0847
AUUAUUGAAGAAGAUUUUAAUAUUGCACUAGGAGUUUUUGCUUUAGCUGGACUAACAGAUUUGUUGGAUGGAUUUAUUGCUCGAAACUGGGCCAAUCAAAGAUCAGCUUUGGGAAGUGCU	1.51
CAGUGUGCAAUACUUUCCCCGGCAUUUAAAGUUAGAGAAUUUUCCGUCACAGAUGCAGUUCCUUUUCCAAUAUCUCUGAUCUGGAACCAUGAUUCAGAAGAUACUGAAGGUGUUCAUGAA	0.195
AGCAUUUUUUCCUGUUAACUUUAUAUUACAAAAUCCGUUCUACCAUAACAAUACAGAGGAACUAGCUGUGUUACUGCACCAGUGUUAUAGGUAACUUCAGUAUAUUAUGAACAAAUCAAA	0.687
UCCGGUUUGGUGAUCAAUACAGCUGGAGAAAUGGCUGGAGCUUUUGUGGCAGUGUUUUUACUAGCAAUGUUCUAUGAAGGACUCAAGAUAGCCCGAGAGAGCCUGCUGCGUAAGUCACAA	0.136

Block 3 — technique: universal PBM; molecule type: double-stranded DNA, one strand shown; matrix: in vitro; concentration: not given; direction: higher = stronger binding
Target: Sal-like protein 4, full length isoform B (SALL4, Homo sapiens, UniProt Q9UJQ4-2, residues 1-616)
Setting: 8-mer, flanks averaged, mean of replicates
Residues (chain): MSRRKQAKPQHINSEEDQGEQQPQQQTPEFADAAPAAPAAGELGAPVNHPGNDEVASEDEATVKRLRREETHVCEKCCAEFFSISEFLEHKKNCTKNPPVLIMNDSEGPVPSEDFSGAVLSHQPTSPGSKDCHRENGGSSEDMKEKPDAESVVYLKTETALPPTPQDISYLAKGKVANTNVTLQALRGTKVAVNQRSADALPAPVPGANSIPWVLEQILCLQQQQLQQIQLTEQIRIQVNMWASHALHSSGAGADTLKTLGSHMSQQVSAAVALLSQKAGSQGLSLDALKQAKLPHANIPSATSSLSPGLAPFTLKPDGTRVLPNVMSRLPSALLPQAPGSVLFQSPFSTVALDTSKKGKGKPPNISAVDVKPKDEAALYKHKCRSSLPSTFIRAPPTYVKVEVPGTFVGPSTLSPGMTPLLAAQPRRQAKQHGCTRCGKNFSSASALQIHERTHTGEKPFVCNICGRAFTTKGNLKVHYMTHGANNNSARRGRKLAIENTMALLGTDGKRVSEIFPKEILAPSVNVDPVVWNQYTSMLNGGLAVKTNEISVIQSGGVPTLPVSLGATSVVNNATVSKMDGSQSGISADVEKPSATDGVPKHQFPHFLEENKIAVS
Sequence	E-score
CCACAGGA	-0.0293
GGCGGCTA	-0.187
CATTATCC	0.169
CGTATGGA	0.0683
ATTGCAGG	0.0747
CCGTCTTA	-0.0354
GAATGGGA	-0.0784
CGGTGGCA	-0.267
AGTCTAAA	0.162
TCCGCCAA	-0.178
CCAACTCA	-0.0473
TAGTCGGA	-0.117
CATTGTGA	-0.176
GGATCAGA	-0.0899
ACTATAGG	0.109
GCGGCAGA	-0.282
TTGTCAAA	0.219
ACCCCATC	-0.158
GGTATCAC	-0.133
GCGTAACA	0.0338
ACAAGCAG	0.0523
AGGGCCGC	-0.368
CAGGTTTA	-0.0103
AAGATATT	0.265
CATAAGAA	0.307

Block 4 — technique: RNA Bind-n-Seq; molecule type: RNA; matrix: in vitro; concentration: 365 nM; relative to: no-protein control; direction: higher = stronger binding
Target: RNA binding protein fox-1 homolog 2, RRM domain, GST-SBP tag (RBFOX2, Homo sapiens, UniProt O43251-10, residues 100-194)
Setting: natural RNA segment, single round, ends assumed
All sequences stand within: GGGAGUUCUACAGUCCGACGAUC … UGGAAUUCUCGGGUGCCAA
Construct (chain): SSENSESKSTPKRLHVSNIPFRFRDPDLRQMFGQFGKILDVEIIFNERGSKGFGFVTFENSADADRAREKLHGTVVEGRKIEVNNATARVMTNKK
Sequence	RBNS enrichment (R)
GUGCAUUGGCAGUAAUUCACAAAUUAGUUGUUAUAUAAGUCUCUCUCAUCCCUUUCACACUAGAUUCUCAGACAUGAAUGAAUUUGUCGUUUGGAAGGAAAGCUGGGUAA	0.294
GUUUUCAUAAGCACCAUGAAGAAUGGUGUUUCCUAAAUGAAAAGUUCAGAUACUGCUGGUAAAGAAACUGGAAAAACUGAAGGAAGGAAUAAAAUAUGUUGGUGGUAUUA	0.598
ACCUCCUGCCAUUCAGUGAGCACUAGGACAGCUGGGACCUCCUGCCAUUCAGUGAGCACUAGGACAGCUGGGACCUCCUGCCAUUCAGUGAGCACUAGGACAGCUGGGGG	0.199
AUUGUUAACUUUUUAUUGUCAUCAAAAGUUCAUAAAAGUCCUAUUAAUCCCCAUAUUCUUCUACUGCCCUUAACUCUGGUAUACACCAAAAAGAAAUCUUUACUUUCCUU	1.06
CACAGGUGCCACCUGUCCCAGAUUGUGGCUUGGCAUGGAGCUGCCCACGUCUGGCUGCUGAUGAACGGUUUAGCCCAGUGACUUCCCUCUGUGUAGCUGAGCAAGGUCUG	0.583
GGAGGUACACCCGUGUGUGUGCAGAGGCACACCCGUGAGUGUGUGGAGGUACACCCUUGUGUGCGUGGAGGCACACCUGGGCAUAGUCUCCGCCCUUUCCCUGGGGAGCC	0.589
AAUCAGAAUAUCUUGGAUGGAACCCAGACAUCAGAUUAUUGUAUUUUCCCCCAUAAUUUAAAGUUCAGUCAUUAAGCUGUUACAUCCCUCUGAAGUUGAUUGUCUUAUAU	0.607
UUUAAAAAUCUGUGAAAUUAACAUGCUUGUGUAUAGCUUUCUAAUAUAUAUAAUAUUAUGGUAAUGGCAGAAGUUUUGUUUUCUUAAUAGCGGGAGGGGGGUAUAUUUGU	0.816

Some of these lines once more (block 1):
Sequence	fluorescence intensity
CTTTCCCGATCTTGAGCCGTGGGTGTAGCACATTTG	52.6 a.u.
CAGAATCGCATACTCCACGTGAGAACAAGAAAAAAT	665 a.u.
CACAACAGTTCCAATCACGTGATGGTTACTGGACTT	10300 a.u.
GCCATTCTCCATTCACACGTCAATCAGTCGTATTGG	89.3 a.u.
AGTCATTGCGTTACCCACGTGGTCGTTATTGTCCAT	1510 a.u.
GTCTTGTCTCATTGAGATGTGGGTGTCCCCACTTCA	78.7 a.u.
CTTGCAGGTTAGGTTTTCGTGCTAAGATGAGCAGAT	63.9 a.u.
GGAGCAAATAGTTGAAAGGTGTGCCATAAGAAGGTG	78.2 a.u.
CGGGAACGCAAATGCATCGTGGTGAAATGATAAATC	84.4 a.u.
TGCAAGAGAAAAAGTTGCGTGCGATACTGCCTAGGA	71.3 a.u.
